Assay results collected from several papers.
“And” joins repeats or separate records; there may be more than shown. Numbers after ± are the reported error. ≈ marks a conversion by molar mass, not a printed value.
Organism: Staphylococcus aureus

For `CC[C@H](C)[C@H](NC(=O)[C@H](Cc1c[nH]c2ccccc12)NC(=O)[C@@H](NC(=O)[C@H](Cc1ccccc1)NC(=O)[C@@H]1CCCN1C(=O)[C@@H](NC(=O)[C@H](C)N)[C@@H](C)CC)[C@@H](C)CC)C(=O)N[C@@H](Cc1ccccc1)C(=O)N[C@@H](CCCNC(=N)N)C(=O)N[C@@H](CC(C)C)C(=O)N[C@@H](CC(C)C)C(=O)N[C@@H](CCCNC(=N)N)C(=O)N[C@@H](CCCCN)C(=O)NCC(N)=O`, the MBC was 15 µM (≈ 25.9 µg/mL) (ATCC 19609; 18 h, 37 °C).
`CCCCCC(=O)N[C@@H](CCCNC(=N)N)C(=O)N[C@@H](CCCNC(=N)N)C(=O)N[C@@H](CCCNC(=N)N)C(=O)N[C@@H](CCCNC(=N)N)C(=O)N[C@H](C(=O)N[C@@H](CC(C)C)C(=O)N[C@H](C(=O)N[C@@H](CCCCN)C(=O)N[C@@H](CCCCN)C(=O)N[C@H](C(=O)N[C@@H](CC(C)C)C(=O)N[C@@H](CCCCN)C(=O)N[C@@H](CC(C)C)C(=O)N[C@@H](CCCCN)C(=O)N[C@@H](CO)C(=O)N[C@@H](CO)C(=O)N[C@@H](C)C(=O)N[C@@H](Cc1ccc(O)cc1)C(N)=O)C(C)C)[C@@H](C)CC)[C@@H](C)CC` has an FICI of 0.06 (checkerboard; unit not given, with: oritavancin; lower means synergy).
The fold change of `Cc1c2c(nn1C)CSCc1cc(n(C)n1)CSc1cc(c3ccccc3c1)OCCCc1c(C(=O)O)n(C)c3c-2c(Cl)ccc13` is reported as 9.51 (label-free quantitative proteomics, item: SAOUHSC_01399 protein; SA113; concentration not given; baseline: untreated control).
`CC[C@H](C)[C@H](NC(=O)[C@H](Cc1c[nH]c2ccccc12)NC(=O)[C@@H](NC(=O)[C@H](Cc1c[nH]c2ccccc12)NC(=O)[C@@H]1CCCN1C(=O)[C@@H](NC(=O)[C@H](C)N)[C@@H](C)CC)[C@@H](C)CC)C(=O)N[C@@H](Cc1c[nH]c2ccccc12)C(=O)N[C@@H](CCCNC(=N)N)C(=O)N[C@@H](CC(C)C)C(=O)N[C@@H](CC(C)C)C(=O)N[C@@H](CCCNC(=N)N)C(=O)N[C@@H](CCCCN)C(=O)NCC(N)=O` has an MBC of 0.94 µM (≈ 1.7 µg/mL) (ATCC 6051; 18 h, 37 °C).
With `CC(=O)N[C@H]1[C@@H](O[C@@H]2O[C@H](C[C@@H](O)[C@H]3O[C@@H](n4ccc(=O)[nH]c4=O)[C@H](O)[C@@H]3O)[C@H](O)[C@H](O)[C@H]2NC(=O)/C=C/CCCCCCCCCC(C)C)O[C@H](CO)[C@@H](O)[C@@H]1O` the MIC90 was 10.5 ± 0.379 µg/mL (≈ 12.6 µM) (resazurin microplate; 71080 (NR-46418)).
The biofilm formation of `OB(O)c1csc2ccccc12` is reported as 27.3% and 32.7% and 32.1% (crystal violet; USA300 wild type; 50 µM; baseline: wild type untreated).
The MIC90 of `CC(=O)NC[C@H]1CN(c2ccc(N3CCOCC3)c(F)c2)C(=O)O1` is reported as 2 µg/mL (≈ 5.93 µM).
With `CNC(C)C1CCC(N)C(OC2C(N)CC(N)C(OC3OCC(C)(O)C(NC)C3O)C2O)O1` (stereo not drawn) the MLC was 4 ± 1 µg/mL (≈ 8.38 µM) (broth microdilution).
`CN[C@H](CC(C)C)C(=O)N[C@H]1C(=O)N[C@@H](CC(N)=O)C(=O)N[C@H]2C(=O)N[C@H]3C(=O)N[C@H](C(=O)N[C@H](C(=O)O)c4cc(O)cc(O)c4-c4cc3ccc4O)[C@H](O)c3ccc(c(Cl)c3)Oc3cc2cc(c3O[C@@H]2O[C@H](CO)[C@@H](O)[C@H](O)[C@H]2O[C@H]2C[C@](C)(N)[C@H](O)[C@H](C)O2)Oc2ccc(cc2Cl)[C@H]1O` has an ROS level of 1010 a.u. (DCFH-DA fluorescence; MRSA ATCC 33591; 4 × MIC; higher = more ROS).
The MBC50 of `CC[C@H](C)[C@H](NC(=O)[C@H](C)NC(=O)[C@H](CCCCN)NC(=O)[C@H](CC(C)C)NC(=O)[C@H](C)NC(=O)[C@@H](NC(=O)[C@H](Cc1c[nH]cn1)NC(=O)[C@H](CC(C)C)NC(=O)[C@@H](NC(=O)[C@@H](NC(=O)[C@H](CCCCN)NC(=O)[C@H](C)NC(=O)[C@H](C)NC(=O)[C@H](CO)NC(=O)[C@H](CCCCN)NC(=O)[C@H](Cc1ccccc1)NC(=O)[C@@H](NC(=O)[C@H](CCCCN)NC(=O)[C@H](CC(C)C)NC(=O)[C@H](Cc1ccccc1)NC(=O)[C@H](CO)NC(=O)[C@H](CCCCN)NC(=O)[C@H](Cc1c[nH]c2ccccc12)NC(=O)[C@H](CCCCN)NC(C)=O)[C@@H](C)O)[C@@H](C)O)C(C)C)[C@@H](C)O)C(=O)N[C@@H](CO)C(=O)N[C@@H](CO)C(N)=O` is reported as 8 µg/mL (≈ 2.73 µM) (MRSA; 130 strains).
Under “inhibition zone diameter”, `CO[C@@]1(NC(=O)Cc2cccs2)C(=O)N2C(C(=O)O)=C(COC(N)=O)CS[C@@H]21` is recorded as 26 mm (ATCC 25923; 128 µg per disk).
`COc1cc2oc([N+](=O)[O-])cc2c2ccccc12` has an MIC90 of over 32 µg/mL (REMA).
For `CCCCCC(=O)N[C@@H](CCCNC(=N)N)C(=O)N[C@@H](CCCNC(=N)N)C(=O)N[C@@H](CCCNC(=N)N)C(=O)N[C@@H](CCCNC(=N)N)C(=O)N[C@H](C(=O)N[C@@H](CC(C)C)C(=O)N[C@H](C(=O)N[C@@H](CCCNC(=N)N)C(=O)N[C@@H](CCCNC(=N)N)C(=O)N[C@H](C(=O)N[C@@H](CC(C)C)C(=O)N[C@@H](CCCNC(=N)N)C(=O)N[C@@H](CC(C)C)C(=O)N[C@@H](CCCNC(=N)N)C(=O)N[C@@H](CO)C(=O)N[C@@H](CO)C(=O)N[C@@H](C)C(=O)N[C@@H](Cc1ccc(O)cc1)C(N)=O)C(C)C)[C@@H](C)CC)[C@@H](C)CC`, the FICI was about 0.19 (checkerboard; unit not given, with: oritavancin; lower means synergy).
For `COc1ccc2ccc3oc([N+](=O)[O-])cc3c2c1Br`, the MIC90 was under 0.25 µg/mL (REMA).
`C[C@H]1c2cccc(O)c2C(=O)C2=C(O)[C@]3(O)C(=O)C(C(N)=O)=C(O)[C@@H](N(C)C)[C@@H]3[C@@H](O)[C@@H]21` has an MIC90 of 1 µg/mL (≈ 2.25 µM).
`CN[C@H](CC(C)C)C(=O)N[C@H]1C(=O)N[C@@H](CC(N)=O)C(=O)N[C@H]2C(=O)N[C@H]3C(=O)N[C@H](C(=O)N[C@H](C(=O)O)c4cc(O)cc(O)c4-c4cc3ccc4O)[C@H](O)c3ccc(c(Cl)c3)Oc3cc2cc(c3O[C@@H]2O[C@H](CO)[C@@H](O)[C@H](O)[C@H]2O[C@H]2C[C@](C)(N)[C@H](O)[C@H](C)O2)Oc2ccc(cc2Cl)[C@H]1O`: “time to kill below detection” at most 10 h (ATCC 700699, MRSA; 4 × MIC).
For `O=[N+]([O-])c1cc2cc3ccc4oc([N+](=O)[O-])cc4c3cc2o1`, the MIC90 was 4 µg/mL (≈ 13.4 µM) (REMA).
The FIC index of `OB(O)CSc1nc2ccccc2n1Cc1ccc(C(F)(F)F)cc1C(F)(F)F` is reported as 0.19 (checkerboard; NRS21; with: oxacillin).
`O=C(O)c1cn(C2CC2)c2cc(N3CCNCC3)c(F)cc2c1=O` gave a biofilm inhibition of 90.5% (MRSA ATCC 33591; 1/2 × MIC).
For `CC[C@H](C)[C@H](NC(=O)[C@H](Cc1ccc(O)cc1)NC(=O)[C@@H](NC(=O)[C@H](Cc1ccc(O)cc1)NC(=O)[C@@H]1CCCN1C(=O)[C@@H](NC(=O)[C@H](C)N)[C@@H](C)CC)[C@@H](C)CC)C(=O)N[C@@H](Cc1c[nH]c2ccccc12)C(=O)N[C@@H](CCCNC(=N)N)C(=O)N[C@@H](CC(C)C)C(=O)N[C@@H](CC(C)C)C(=O)N[C@@H](CCCNC(=N)N)C(=O)N[C@@H](CCCCN)C(=O)NCC(=O)O`, the MBC was 3.75 µM (≈ 6.61 µg/mL) (ATCC 19609; 18 h, 37 °C).
For `CCc1c([N+](=O)[O-])oc2ccc3ccccc3c12`, the MIC90 was 2 µg/mL (≈ 8.29 µM) (REMA).
The Emax of `CC(C)[C@@H]1NC(=O)CNC(=O)[C@H](CC(N)=O)NC(=O)[C@H](CCCNC(=N)N)NC(=O)[C@H](Cc2ccc(O)cc2)NC(=O)[C@H](C(C)C)NC(=O)[C@@H](NC(=O)[C@@H](NC(=O)[C@H](CC(N)=O)NC(=O)[C@H](Cc2c[nH]c3ccccc23)NC(=O)[C@H](C)NC(=O)[C@H](Cc2ccccc2)NC(=O)CN)C(C)C)CSSC[C@@H](C(=O)N[C@@H](Cc2c[nH]cn2)C(=O)N[C@@H](CCCNC(=N)N)C(=O)N[C@@H](CCCNC(=N)N)C(=O)N[C@@H](C)C(=O)N[C@@H](CC(N)=O)C(N)=O)NC(=O)[C@H](C(C)C)NC(=O)[C@H](CCCNC(=N)N)NC1=O` is reported as -5.6 log CFU (bactericidal activity; CGMCC 1.9; 24 h).
The MIC90 of `CCCCc1c([N+](=O)[O-])oc2ccc3ccccc3c12` is reported as over 32 µg/mL (REMA).
`CN[C@H](CC(C)C)C(=O)N[C@H]1C(=O)N[C@@H](CC(N)=O)C(=O)N[C@H]2C(=O)N[C@H]3C(=O)N[C@H](C(=O)N[C@H](C(=O)O)c4cc(O)cc(O)c4-c4cc3ccc4O)[C@H](O)c3ccc(c(Cl)c3)Oc3cc2cc(c3O[C@@H]2O[C@H](CO)[C@@H](O)[C@H](O)[C@H]2O[C@H]2C[C@](C)(N)[C@H](O)[C@H](C)O2)Oc2ccc(cc2Cl)[C@H]1O` gave an MIC increase of 8 fold (29213; 30 days; baseline: initial MIC).

Excerpt of the above:
For `CCc1c([N+](=O)[O-])oc2ccc3ccccc3c12`, the MIC90 was 2 µg/mL (≈ 8.29 µM) (REMA).
The Emax of `CC(C)[C@@H]1NC(=O)CNC(=O)[C@H](CC(N)=O)NC(=O)[C@H](CCCNC(=N)N)NC(=O)[C@H](Cc2ccc(O)cc2)NC(=O)[C@H](C(C)C)NC(=O)[C@@H](NC(=O)[C@@H](NC(=O)[C@H](CC(N)=O)NC(=O)[C@H](Cc2c[nH]c3ccccc23)NC(=O)[C@H](C)NC(=O)[C@H](Cc2ccccc2)NC(=O)CN)C(C)C)CSSC[C@@H](C(=O)N[C@@H](Cc2c[nH]cn2)C(=O)N[C@@H](CCCNC(=N)N)C(=O)N[C@@H](CCCNC(=N)N)C(=O)N[C@@H](C)C(=O)N[C@@H](CC(N)=O)C(N)=O)NC(=O)[C@H](C(C)C)NC(=O)[C@H](CCCNC(=N)N)NC1=O` is reported as -5.6 log CFU (bactericidal activity; CGMCC 1.9; 24 h).
